Measurements collected from several papers.
Lines come from different studies, so protocols differ. “And” joins repeats or separate records; there may be more than shown. Numbers after ± are the reported error.

SMILES | assay | test system | conditions | how to read | endpoint | result
COc1c(N2C[C@@H]3CCCN[C@@H]3C2)c(F)cc2c(=O)c(C(=O)O)cn(C3CC3)c12 | – | male Hartley guinea pig, anaesthetized | intravenous infusion, 5 mg/kg, 10 min infusion, post-infusion | – | QTc interval | 313 ± 0.8 ms
Cn1ncc(S(=O)(=O)NC2CCc3c2ccc(Cl)c3Cl)c1C(=O)O (centres unmarked) | colloidal aggregate formation, dynamic light scattering | 50 mM potassium phosphate buffer | 200 µM, pH 7.0, 1% DMSO | higher = more aggregation | DLS scattered light intensity | 1.75e+06 counts/s
Nc1ccn([C@@H]2O[C@H](CO)[C@@H](O)C2(F)F)c(=O)n1 | item: dFdU | human, plasma | intravenous, 1000 mg/m^2, added: after paricalcitol | – | Cmax, mean | 8100 ng/mL
CCCCc1ccc(C#Cc2ccc(OCC)cc2)cc1 | item: compound | human pregnant women, male fetuses, cord serum | dose not given, paired maternal-cord samples, mean | – | concentration | 0.56 ng/mL
CCc1cc(C(=O)NC)c2nccc(N3CCc4c(cc(Cn5ccnc5)cc4-c4cn(C)nc4C(F)(F)F)C3=O)c2c1 | – | Sprague Dawley rat | oral, 100 mg/kg twice daily, 7 days | – | kidney weight | 2.4 ± 0.202 g
O=S(=O)(NC1(Cc2ccc(F)cc2)CC1)c1cccc(Cl)c1O | colloidal aggregate formation, dynamic light scattering | 50 mM potassium phosphate buffer | 200 µM, pH 7.0, 1% DMSO | higher = more aggregation | DLS scattered light intensity | 671000 counts/s
CC(C)(C(=O)N1CCOc2c(C#N)cncc2C1)C(F)F | – | human, both sexes | oral, 10 mg single dose | – | subjects with dizziness TEAE | 0%
Cc1cc(-c2nnc(N)nc2-c2ccc(F)cc2)cc(Cl)n1 | item: Hypothyroidism | IO-naive colorectal cancer patients | oral, dose not given, treatment-related, grade 1 | – | patients with immune-mediated AE | 0%
COc1ncc(-c2nc3c(n2C(C)C)[C@H](c2ccc(Cl)cc2)N(c2cc(Cl)cn(C)c2=O)C3=O)c(OC)n1 | LC-MS/MS, noncompartmental | human, plasma | oral, 120 mg, cycle 2 day 1, high-dose, geometric mean | – | AUC(0-last) | 11900 ng·h/mL
C=CC1(C)CC(OC(=O)CSc2ccc(N)cc2)C2(C)C(C)CCC3(CCC(=O)C32)C(C)C1O (centres unmarked) | haemolysis | sheep erythrocytes | 1 h, pH 7.5 | – | HC50 | > 128 µg/mL
CC(C)[C@H](N)C(=O)NCCCS(=O)(=O)O | – | human both sexes, plasma | oral, 256.5 mg once daily days 8-14, day 14, fasted capsule | – | AUC(0-12) | 7870 ng·h/mL
CC(=O)c1cc(C(=O)N[C@@H](C)Cn2ccc(-c3ccc(C#N)c(Cl)c3)n2)[nH]n1 | – | human, fasted, plasma | oral tablet, 300 mg, geometric mean | – | AUC(0-tlast) | 20500 ng·h/mL
CCN1/C(=C/C(C)=O)Sc2ccc(F)cc21 | – | cynomolgus monkey | oral, 100 mg/kg, 24 h post-dose | – | QT interval | 251 ± 9 ms
Cc1nc(-c2cnc(NC(C)C)n(C)c2=O)ccc1Oc1ccnc(-c2cnn(C)c2)c1 | – | Beagle dog, male, plasma | intravenous, 1 mg/kg | – | half-life | 6.82 h
O=C(Nc1nc2cccc(-c3ccc(CN4CCS(=O)(=O)CC4)cc3)n2n1)C1CC1 | item: pyrexia | rheumatoid arthritis patients | oral, 75 mg once daily, 4 weeks, any relatedness | – | treatment-emergent adverse events | 0%
O=C(O)CCCOc1ccc([18F])cc1-c1cc(-c2ccccc2C(F)(F)F)n(-c2ccccc2)n1 | gamma counting | male ddY mice, pancreas | intravenous, 2.1 MBq, 15 min | – | radioactivity uptake | 0.37 ± 0.03 SUV
O=C(/C=C/CCc1ccc(O)cc1)/C=C/c1ccc(O)cc1 | – | nude mouse MCF7 xenograft | 10 mg/kg, day 8 | – | body weight | 19.6 ± 1.46 g
COc1ccnc(C(=O)O)c1O | soil adsorption | clay loam soil | pH 7.2, organic carbon 4.4 % | – | Freundlich coefficient KF | 171 mL/g
CCCCC[C@H](O)CC[C@@H]1[C@H]2Cc3cccc(OCC(=O)O)c3C[C@H]2C[C@H]1O | LC-MS/MS | Japanese PAH patients aged ≥sample A years, plasma | inhaled, 54 µg | – | geometric mean Cmax | 1.1 ng/mL

SMILES | assay | test system | conditions | how to read | endpoint | result
COc1cc(Nc2ncc3c(n2)-c2ccc(Cl)cc2C(c2c(F)cccc2OC)=NC3)ccc1C(=O)O | item: Dizziness, grade 1 | cancer patients, phase 1/2 | oral, dose not given, added: pembrolizumab | – | patients with adverse event | 8%
COc1cc(C(=O)NC2CCN(C)CC2)c(F)cc1Nc1ncc(C(F)(F)F)c(Oc2cccc3c2C(=O)N(C)C3)n1 | – | human patients, plasma | oral, 200 mg single dose, cycle 1 day 1, geometric mean | – | Cmax, dose-normalised | 9.14
C=CC[C@@H]1/C=C(\C)C[C@H](C)C[C@H](OC)[C@H]2O[C@@](O)(C(=O)C(=O)N3CCCC[C@H]3C(=O)O[C@H](/C(C)=C/[C@@H]3CC[C@@H](O)[C@H](OC)C3)[C@H](C)[C@@H](O)CC1=O)[C@H](C)C[C@@H]2OC | – | Wistar Kyoto rat, male, plasma | ip, 0.5 mg/kg/day, day 18 | – | plasma K+ level | 5.4 ± 0.5 mmol/L
CCCCCCCCCCCCCCCC(=O)N[C@@H](CCC(=O)NCCCC[C@@H]1NC(=O)[C@H]([C@@H](C)CC)NC(=O)[C@@H](NC(=O)[C@@H]2CCCN2C(=O)[C@H](Cc2ccccc2)NC(=O)[C@H](Cc2c[nH]cn2)NC(=O)[C@@H](NC(=O)[C@H](CC(=O)O)NC(=O)CC(C)C)[C@@H](C)O)CSSC[C@@H](C(=O)N[C@@H](CCCCN)C(N)=O)NC(=O)CNC(=O)[C@H](CCCCN)NC(=O)[C@H](CO)NC(=O)[C@H](CCCNC(=N)N)NC(=O)[C@@H]2CCCN2C(=O)[C@H](CCC(=O)O)NC(=O)[C@H](Cc2ccccc2)NC1=O)C(=O)O | – | healthy volunteers, plasma | subcutaneous, 60 mg single, lyophilised formulation | – | CL/F | 24.7 ± 10.5 mL/min
O=C(Nc1cnccc1Cl)N1CCN(Cc2ccc3c(c2)OC(F)(F)O3)CC1 | multiple ascending dose | elderly men and women | 100 mg, treatment-emergent adverse events | – | alanine aminotransferase increased | 0%
N#Cc1ccc2c(c1)[C@H]1CCCN(C(=O)c3ccc4[nH]cnc4c3)[C@H]1C2 | – | human females | 160 mg, day 15 | – | SHBG level | 30.9 nmol/L
Cc1c(-c2ccc(N3CCc4cccc(C(=O)Nc5nc6ccccc6s5)c4C3)nc2C(=O)O)cnn1CC12CC3(C)CC(C)(C1)CC(OCCNCC[C@H](O)CO)(C3)C2 | – | anesthetized male beagle dogs | intravenous infusion, 0.3 mg/kg/min, 45 min | relative to: vehicle | PR interval change | -2 ms
CCN1CCN(Cc2ccc(Nc3ncc(F)c(-c4cc(F)c5nc6n(c5c4)[C@H](C)CCC6)n3)nc2)CC1 | – | human, plasma | 500 mg multiple dosing, median | – | Tmax | 6.05 h
Cc1ccc(C(=O)N(CCCN)C(c2nc3snc(C)c3c(=O)n2Cc2ccccc2)C(C)C)cc1 (centres unmarked) | – | human patients, plasma | intravenous, 10 mg/day, day 3 of induction course, geometric mean | – | plasma concentration at 24 h | 12.3 ng/mL
CC(=O)N(C)[C@H]1CCN(C(=O)c2cnc3c(c2)C[C@](C)(c2ccc(F)cc2)N3)C1 | – | human | oral, 60 mg, after first dose | – | duration of mild visual impairment | 144 days
Cl.[2H]C([2H])([2H])CC(=O)c1cnc(NC(=O)C2CC2)cc1Nc1cccc(-c2ncn(C([2H])([2H])[2H])n2)c1OC | geometric mean | human | oral, 25 mg single dose, fasted, liquid | – | elimination rate constant | 2.42e-05 s⁻¹
C[C@H]1CN(C(=O)CC#N)[C@]12CCN(c1ncnc3[nH]ccc13)C2 | – | healthy human | oral, 6 mg single | – | subjects withdrawn for AEs | 0%
COc1cc(N)c(Cl)cc1C(=O)NC1CCN(CCCOc2ccc(F)cc2)CC1OC (centres unmarked) | – | male Hartley guinea pig, anaesthetized | intravenous infusion, 0.3 mg/kg, 10 min infusion, post-infusion | – | QTc interval | 358 ± 0.7 ms
N#Cc1cc(NC(=O)[C@H]2c3ccccc3C(=O)N(CC(F)(F)F)[C@@H]2c2cccnc2)ccc1F | – | human | oral, 600 mg, fed, population mean | – | CL | 535 mL/min
COc1cccc(-c2n[nH]c(SCc3ccccn3)n2)c1OC | – | Sprague-Dawley rats, male | diet, 100 mg/kg/day, day 14, 90-day subchronic study | – | haemoglobin | 15.6 g/dL
C=CC1(C)CC(OC(=O)CSCCCCCN(C)C)C2(C)C(C)CCC3(CCC(=O)C32)C(C)C1O (centres unmarked) | haemolysis | sheep erythrocytes | 1 h, pH 7.5 | – | HC50 | > 128 µg/mL
O=C(O)CCC(=O)O.[2H]C([2H])([2H])Oc1cc(C)c2[nH]ccc2c1CN1CC[C@@H](C2CC2)C[C@H]1c1ccc(C(=O)O)cc1 | multiple ascending dose | healthy Chinese subjects | 200 mg once daily | – | subjects with TEAE Appendicitis | 0%
Cc1cc(-c2nccc3c2ccn3CC(=O)Nc2ccc(-c3cnccn3)cn2)ccn1 | – | human | 15 mg once daily, multiple ascending dose | – | subjects with gastrointestinal disorders | 11.1%
CNc1ccc(-c2nc3ccc(O)cc3s2)cc1 [carbon-11 labelled] | microPET/CT imaging | B6SJL mouse, normal, heart | intravenous, 5 min | – | SUV | 1.13 ± 0.351

SMILES | assay | test system | conditions | how to read | endpoint | result
CNC(=O)c1cc(Oc2ccc(NC(=O)Nc3cc(C(C)(C)C)nn3-c3ccc4ncccc4c3)c(F)c2)ccn1 | item: worst grade 1 | human | oral, dose not given, cycles 1 and 2, Medium Cmax subgroup | – | patients with nervous system disorder AE | 33%
C[C@H](CCC(=O)O[C@@H]1O[C@H](C(=O)O)[C@@H](O)[C@H](O)[C@H]1O)[C@H]1CC[C@H]2[C@@H]3[C@H](O)C[C@@H]4C[C@H](O)CC[C@]4(C)[C@H]3CC[C@]12C | – | human, plasma | endogenous baseline diurnal | – | daily mean concentration | 16.5 ± 2 nM
CNC(=O)c1ccc(-c2cnc3ncc(Cc4ccc5ncccc5c4)n3n2)cc1F | item: Dyspnea, all grades | cancer patients | oral, 600 mg twice daily, other expansion cohort, any causality | – | patients with adverse event | 11%
Cc1nnc(SCC2=C(C(=O)O)N3C(=O)[C@@H](NC(=O)Cn4cnnn4)[C@H]3SC2)s1 | – | human whole blood | concentration not given, 24 h, 4 °C | – | deviation from nominal concentration | -3.7%
CN(C(=O)n1cnc(-c2ccc[n+]([O-])c2)c1)[C@H]1CC[C@H](O)CC1 | – | rat, hippocampus | oral, 10 mg/kg single dose, 1 h | – | tissue concentration | 14 ± 0.2 ng/g
O=C(O)CSc1nnc(Br)n1-c1ccc(C2CC2)c2ccccc12 | – | KM mouse, chronic hyperuricaemia model | dose not given, day 21 | – | body weight | 31 g and 35.2 g and 39 g and 37.2 g and 32.4 g and 34.6 g
Cc1nc2cccc(OCC(C)(C)C(=O)NC(C)C)c2c(N)c1C(=O)O | – | Sprague-Dawley rat, plasma | oral, 100 mg/kg, day 7, 7-day repeated dosing | relative to: female over male | Cmax ratio female over male | 1.61 ± 0.71
CNC(=O)c1cc(Oc2ccc(NC(=O)Nc3ccc(Cl)c(C(F)(F)F)c3)cc2)cc[n+]1[O-] | – | mouse, wild type, plasma | oral, 10 mg/kg, without rifampin, geometric mean | – | AUC(0-7.5 h) | 150 ng·h/mL
CC1CC1(C(=O)O)C(=O)NCc1ccc(Sc2ccccc2)cc1 (centres unmarked) | colloidal aggregate formation, dynamic light scattering | 50 mM potassium phosphate buffer | 200 µM, pH 7.0, 1% DMSO | higher = more aggregation | DLS scattered light intensity | 592000 counts/s
OC[C@H]1O[C@@H](c2ccc(Cl)c(Cc3ccc(O[C@H]4CCOC4)cc3)c2)[C@H](O)[C@@H](O)[C@@H]1O | – | Japanese type 1 diabetes patients, blood | 25 mg, day 28 | relative to: baseline | change in Non-HDL cholesterol | 3.17 mg/dL
C[C@@H](Oc1ccc(S(C)(=O)=O)cc1C(=O)N1C[C@@H]2C[C@]2(c2cc(C(F)(F)F)on2)C1)C(F)(F)F | – | young healthy humans, urine | oral, 25 mg once daily, 0 to 24 h, multiple dosing | – | fraction excreted in urine at steady state | 4.92%
Cc1ccc([C@@H]2O[C@H](CO)[C@@H](O)[C@H](O)[C@H]2O)cc1Cc1ccc(-c2ccc(F)cc2)s1 | – | Japanese type 2 diabetes patients | 100 mg, day 15, 24 h urine collection | relative to: baseline | urinary potassium excretion change | 5.24 mEq
Cc1cccc(CNC(=O)c2cn(CCNC(=O)c3ccccc3Sc3c([N+](=O)[O-])ncn3C)c3cc4c(cc3c2=O)OC(F)(F)O4)n1 | – | Sprague-Dawley rat, male, whole blood | intravenous, 5 mg/kg | – | Vdss | 43.6 ± 12.7 L/kg
CC(Cc1c(Cl)cccc1Cl)NS(=O)(=O)c1ccoc1C(=O)O (centres unmarked) | colloidal aggregate formation, dynamic light scattering | 50 mM potassium phosphate buffer | 200 µM, pH 7.0, 1% DMSO | higher = more aggregation | DLS scattered light intensity | 573000 counts/s
CC(C(=O)NCC(=O)NCC(CNC(=O)CNC(=O)C(C)N1CCN(CC(=O)[O-])CCN(CC(=O)[O-])CCN(CC(=O)[O-])CC1)(CNC(=O)CNC(=O)C(C)N1CCN(CC(=O)[O-])CCN(CC(=O)[O-])CCN(CC(=O)[O-])CC1)CNC(=O)CNC(=O)C(C)N1CCN(CC(=O)[O-])CCN(CC(=O)[O-])CCN(CC(=O)[O-])CC1)N1CCN(CC(=O)[O-])CCN(CC(=O)[O-])CCN(CC(=O)[O-])CC1.[Gd+3].[Gd+3].[Gd+3].[Gd+3] (centres unmarked) | HPLC-ICP-MS | cynomolgus monkey, plasma | up to 8 h | relative to: total Gd | intact compound share | > 99%
CCn1c(C(=O)N(C2CC2)C2CC2)cc2c3c(ncn3C)c(Nc3cc(C)n(C)n3)nc21 | inducer | cultured human hepatocytes | 10 µM, 3 days, added: phenacetin O-dealkylation | relative to: vehicle | CYP1A2 activity | 2.5 fold
O=S(=O)(NCC(O)c1cc2ccccc2s1)c1cccc(Cl)c1O (centres unmarked) | colloidal aggregate formation, dynamic light scattering | 50 mM potassium phosphate buffer | 200 µM, pH 7.0, 1% DMSO | higher = more aggregation | DLS scattered light intensity | 433000 counts/s
CCn1cc(C(=O)N2CCOCC2)c(=O)c2cc(NC3Cc4ccccc4C3)cnc21 | – | human, fed | oral suspension, 600 mg/day twice daily, day 8, arithmetic mean | – | AUC(0-12) | 19400 ng·h/mL
